Assay results pooled from the literature.
Protocols differ between the studies behind these lines. ± gives the spread as reported.

CC[C@H](C)[C@H](NC(=O)[C@H](CCCCN)NC(=O)CNC(=O)[C@H](CC(C)C)NC(=O)[C@H](Cc1ccccc1)NC(=O)[C@H](CCCCN)NC(=O)[C@H](CO)NC(=O)[C@H](Cc1ccccc1)NC(=O)[C@H](Cc1c[nH]c2ccccc12)NC(=O)[C@H](CCC(N)=O)NC(=O)[C@@H](NC(=O)[C@H](Cc1ccccc1)NC(=O)CCCCCNC(=O)CN1CCN(CC(=O)O)CCN(CC(=O)O)CCN(CC(=O)O)CC1)C(C)C)C(=O)N[C@@H](CCC(=O)O)C(=O)N1CCC[C@H]1C(=O)N[C@H](CC(=O)O)C(=O)N[C@H](C(=O)N[C@@H](CO)C(=O)N[C@@H](CCC(N)=O)C(=O)N[C@H](C(=O)N[C@@H](CCC(N)=O)C(=O)N[C@@H](CC(=O)O)C(=O)N1CCC[C@H]1C(=O)N[C@@H](CC(N)=O)C(=O)N[C@@H](CC(=O)O)C(=O)N[C@@H](CCC(N)=O)C(=O)N[C@@H](Cc1ccc(O)cc1)C(=O)N[C@@H](CCC(=O)O)C(=O)N1CCC[C@H]1C(=O)N[C@@H](Cc1ccccc1)C(=O)O)C(C)C)C(C)C [copper-64 labelled] — tissue uptake (C57BL/6 mice, male, MC-38 tumour-bearing, tumor; 2 h, vehicle-treated): 2.09 ± 0.2 %ID/g
C[C@H](O)[C@@H](NC(=O)[C@H]1CCCN1C(=O)[C@@H](CCCCN)NC(=O)[C@@H](CO)NC(=O)[C@@H](Cc1ccc(O)cc1)NC(=O)[C@@H](CC(N)=O)NC(=O)CCOCCOCCOCCNC(=O)CN1CCN(CC(=O)O)CCN(CC(=O)O)CCN(CC(=O)O)CC1)C(=O)N[C@H](CC(=O)O)C(=O)N[C@H](CCCNC(=N)N)C(=O)N[C@H](CCC(N)=O)C(=O)N[C@H](Cc1ccc(O)cc1)C(=O)N[C@H](Cc1c[nH]cn1)C(=O)N[C@H](Cc1ccccc1)C(N)=O [gallium-68 labelled] — tissue uptake (BALB/c nude mice U-87 MG tumour, spleen; intravenous, 1.85 MBq, 0.5 h, radiolabelled): 0.68 ± 0.67 %ID/g
CCCC[C@H]1C(=O)N(C)[C@@H](CCCC)C(=O)N[C@@H](CCCNC(=O)CN2CCN(CC(=O)O)CCN(CC(=O)O)CCN(CC(=O)O)CC2)C(=O)N[C@H](C(=O)NCC(N)=O)CSCC(=O)N[C@@H](Cc2ccc(O)cc2)C(=O)N(C)[C@@H](C)C(=O)N[C@@H](CC(N)=O)C(=O)N2CCC[C@H]2C(=O)N[C@@H](Cc2c[nH]cn2)C(=O)N[C@@H](CC(C)C)C(=O)N(C)CC(=O)N[C@@H](Cc2c[nH]c3ccccc23)C(=O)N[C@@H](CO)C(=O)N[C@@H](Cc2c[nH]c3ccccc23)C(=O)N1C [gallium-68 labelled] — tissue uptake (NOD/SCID mice with CHO-hPD-L1 xenograft, muscle; 10 min post injection): 1.21 ± 0.21 %ID/g
CC(C)C[C@@H](NC(=O)[C@@H](CCCNC(=N)N)NC(=O)[C@@H](Cc1c[nH]cn1)NC(=O)[C@@H](Cc1c[nH]c2ccccc12)NC(=O)[C@@H](Cc1c[nH]cn1)NC(=O)[C@@H](Cc1ccccc1)NC(=O)[C@H](NC(=O)[C@@H](Cc1ccc(O)cc1)NC(=O)CNC(=O)CNC(=O)CCOCCOCCOCCNC(=O)CN1CCN(CC(=O)O)CCN(CC(=O)O)CC1)[C@H](C)O)C(=O)N[C@H](CC(N)=O)C(=O)N1CCC[C@@H]1C(=O)O [gallium-68 labelled] — tissue uptake (gamma counting; C57BL/6 mice, male, intestines; intravenous, 1.85 MBq, 30 min): 1.15 ± 0.38 %ID/g
O=C([O-])CNC(=O)CN1CCN(CC(=O)NCC(=O)[O-])CCN(CC(=O)NCC(=O)[O-])CCN(CC(=O)NCC(=O)[O-])CC1.[177Lu+3] — tissue uptake (Sprague-Dawley rat, liver; intravenous (tail vein), dose not given, 2 h): 0.043 ± 0.02 % injected dose/g
Cc1ccccc1-c1ccc(-c2nc(-c3ccc(CN(C)CCCC(=O)O)c([18F])c3)no2)cc1C(F)(F)F — tissue uptake (Sprague Dawley rats, male, pancreas; 30 min): 0.44 ± 0.1 %ID/g
CC[C@H](C)[C@H](NC(=O)[C@H](CCCNC(=N)N)NC(=O)[C@H](CCCCN)NC(=O)[C@H](Cc1ccc(O)cc1)NC(=O)[C@H](CC(=O)O)NC(=O)[C@H](C)NC(=O)CNC(=O)CCOCCOCCOCCNC(=O)CN1CCN(CC(=O)O)CCN(CC(=O)O)CCN(CC(=O)O)CC1)C(=O)N[C@H](C(=O)N[C@@H](CC(C)C)C(=O)N[C@@H](CCCCN)C(=O)N[C@H](C(=O)N[C@@H](CC(N)=O)C(N)=O)C(C)C)[C@@H](C)O [copper-64 labelled] — tissue uptake (ex vivo gamma counting; C57BL/6J male mice, B16-F10 tumour, stomach; intravenous, 1.85 MBq, 100 min): 1.64 ± 0.482 %ID/g
CSCC[C@H](NC(=O)CNC(=O)[C@H](CCCCN)NC(=O)[C@H](CC(C)C)NC(=O)[C@@H]1CCCN1C(=O)[C@H](CO)NC(=O)[C@H](Cc1c[nH]cn1)NC(=O)[C@H](Cc1c[nH]c2ccccc12)NC(=O)[C@H](CCCNC(=N)N)NC(=O)[C@H](CC(C)C)NC(=O)[C@H](CCCNC(=N)N)NC(=O)[C@H](Cc1c[nH]c2ccccc12)NC(=O)[C@H](CS)NC(=O)CCCCCNC(=O)CN1CCN(CC(=O)O)CCN(CC(=O)O)CCN(CC(=O)O)CC1)C(=O)O [copper-64 labelled] — tissue uptake (male C57BL/6J mice, B16-F10 tumour, small intestine; intravenous, 1.85 MBq, 0.5 h): 13 %ID/g
CC[C@H](C)[C@H](NC(=O)[C@H](CCCNC(=N)N)NC(=O)[C@H](CCCCN)NC(=O)[C@H](Cc1ccc(O)cc1)NC(=O)[C@H](CC(=O)O)NC(=O)[C@H](C)NC(=O)CNC(=O)CCOCCOCCOCCNC(=O)CN1CCN(CC(=O)O)CCN(CC(=O)O)CCN(CC(=O)O)CC1)C(=O)N[C@H](C(=O)N[C@H](C(=O)N[C@@H](CCCCN)C(=O)N[C@H](C(=O)N[C@@H](CC(N)=O)C(N)=O)C(C)C)C(C)C)[C@@H](C)O [copper-64 labelled] — tissue uptake (ex vivo gamma counting; C57BL/6J male mice, B16-F10 tumour, pancreas; intravenous, 1.85 MBq, 20 min): 0.799 ± 0.068 %ID/g
CN1Cc2cc(Cl)ccc2-n2c(nnc2C2CCN(c3cccc([18F])n3)CC2)C1 — tissue uptake (C57BL/6 mouse male, blood; intravenous, 3.7 MBq, 60 min): 2.42 ± 0.43 %ID/g

A few entries again:
CC[C@H](C)[C@H](NC(=O)[C@H](CCCCN)NC(=O)CNC(=O)[C@H](CC(C)C)NC(=O)[C@H](Cc1ccccc1)NC(=O)[C@H](CCCCN)NC(=O)[C@H](CO)NC(=O)[C@H](Cc1ccccc1)NC(=O)[C@H](Cc1c[nH]c2ccccc12)NC(=O)[C@H](CCC(N)=O)NC(=O)[C@@H](NC(=O)[C@H](Cc1ccccc1)NC(=O)CCCCCNC(=O)CN1CCN(CC(=O)O)CCN(CC(=O)O)CCN(CC(=O)O)CC1)C(C)C)C(=O)N[C@@H](CCC(=O)O)C(=O)N1CCC[C@H]1C(=O)N[C@H](CC(=O)O)C(=O)N[C@H](C(=O)N[C@@H](CO)C(=O)N[C@@H](CCC(N)=O)C(=O)N[C@H](C(=O)N[C@@H](CCC(N)=O)C(=O)N[C@@H](CC(=O)O)C(=O)N1CCC[C@H]1C(=O)N[C@@H](CC(N)=O)C(=O)N[C@@H](CC(=O)O)C(=O)N[C@@H](CCC(N)=O)C(=O)N[C@@H](Cc1ccc(O)cc1)C(=O)N[C@@H](CCC(=O)O)C(=O)N1CCC[C@H]1C(=O)N[C@@H](Cc1ccccc1)C(=O)O)C(C)C)C(C)C [copper-64 labelled] — tissue uptake (C57BL/6 mice, male, MC-38 tumour-bearing, tumor; 2 h, vehicle-treated): 2.09 ± 0.2 %ID/g
